Results of several laboratories.
A part holds a random share of what one study measured. Positions count from the first letter of the parent shown.

Block 1
Target: Histone acetyltransferase KAT6A, both winged helices, GST fusion (KAT6A, Homo sapiens, UniProt Q92794, residues 1-181)
Method: protein binding microarray
Molecule type: double-stranded DNA, one strand shown
Matrix: in vitro
Tested at: not given
Setting: 8-mer, flanks averaged, mean of 2 arrays, mostly near background
Baseline: not given
Reading: higher = stronger binding
Construct (chain): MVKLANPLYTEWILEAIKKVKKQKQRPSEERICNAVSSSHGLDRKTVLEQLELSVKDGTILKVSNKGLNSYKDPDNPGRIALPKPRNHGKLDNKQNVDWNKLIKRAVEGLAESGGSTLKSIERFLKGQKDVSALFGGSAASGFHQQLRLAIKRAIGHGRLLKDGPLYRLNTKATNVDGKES
Oligonucleotide	E-score
CAGAGGTC	-0.0542
CCACGTTA	-0.0966
GGCTCACA	-0.0454
CAATTACA	0.00249
AATGTAGC	-0.185
AATGCTGA	-0.187
AAGTTAAA	-0.109
ACCATCGC	0.171
ACTGGTCC	0.0311
CAGCAAAG	-0.0103
ATCCACTA	-0.161
GTTCGCGA	0.222
TCATCAGA	-0.00266
ACCGATAT	-0.0338
CGAACCAC	0.079
CGAGGTTC	-0.0126

Block 2
Target: Ras GTPase-activating protein-binding protein 1, full length (G3BP1, Homo sapiens, UniProt Q13283)
Chain of UniProt Q13283 (whole entry, looked up): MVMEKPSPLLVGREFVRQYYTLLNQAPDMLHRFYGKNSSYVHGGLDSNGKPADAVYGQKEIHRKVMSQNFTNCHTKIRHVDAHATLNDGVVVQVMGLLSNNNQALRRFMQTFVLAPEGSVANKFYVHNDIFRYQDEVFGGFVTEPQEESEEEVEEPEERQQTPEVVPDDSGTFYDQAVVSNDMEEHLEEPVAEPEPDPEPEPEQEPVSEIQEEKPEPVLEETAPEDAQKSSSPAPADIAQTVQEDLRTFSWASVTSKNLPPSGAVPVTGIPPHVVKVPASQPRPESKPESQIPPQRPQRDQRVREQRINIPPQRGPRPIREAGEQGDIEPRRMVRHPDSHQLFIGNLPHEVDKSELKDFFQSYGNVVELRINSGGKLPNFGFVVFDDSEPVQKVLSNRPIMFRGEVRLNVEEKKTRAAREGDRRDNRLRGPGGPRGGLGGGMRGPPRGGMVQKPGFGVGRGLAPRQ
Method: RNA Bind-n-Seq
Molecule type: RNA
Matrix: in vitro
Tested at: 200 nM
Setting: whole 134-nt RNA, ends assumed
Together with: 150 mM LiCl
Baseline: input library
Reading: higher = stronger binding
Each molecule: 7-deaza-guanosine replaces G
Constant ends, left off below: GGGAGUUCUACAGUCCGACGAUC … UGGAAUUCUCGGGUGUCAAGG
Oligonucleotide	log2 enrichment
AGUCCUGUGCUACACAUCGUAUGUACCGAAUCAAAUUUUUAAAUUUUUAAACCCAAAAAAGUAUUAUGUUACGCCGUUCGGAUCUGCACU	0.211
GUCCUGUGCUACACAUCGUAUGUACCGAAUCGGGAAAAAGGGUUUGGGAAAAAAAGGGAAAGUAUUAUGUUACGCCGUUCGGAUCUGCAC	-1.9
AGUCCUGUGCUACACAUCGUAUGUACCGAAUCGGGUUUUUUUGGGAAAGGGAAAGGGAAAGUAUUAUGUUACGCCGUUCGGAUCUGCACU	-1.27
AAGUCCUGUGCUACACAUCGUAUGUACCGAAUCGGUGGUUUUUUUGGUUUUUUUGGAAAGUAUUAUGUUACGCCGUUCGGAUCUGCACUU	-0.333
UAACUUUAGAGGAGGAUCUGAUGGAUAUGGCAGUGGACGUGGAUUUGGGGAUGGCUAUAAUGGGUAUGGAGGAGGACCUGUAGGUGGCAA	0.0103
AAGUCCUGUGCUACACAUCGUAUGUACCGAAUCGGAAAGGUUUUUGGUUUUUUUGGAAAGUAUUAUGUUACGCCGUUCGGAUCUGCACUU	-1.75
UCCUGUGCUACACAUCGUAUGUACCGAAUCGGGGUGGGGAAAAAAAGGGGUUUUUGGGGAAAGUAUUAUGUUACGCCGUUCGGAUCUGCA	0.304
UGGCCCUGGUGGCAUGCGGGGAGGAAGAGGUGGCCUCAUGGAUCGUGGUGGUCCCGGUGGAAUGUUCAGAGGUGGCCGUCGUGGAGACAG	-0.261

Block 3
Target: ABI1, truncated, D143A, DHFR fusion (Arabidopsis thaliana)
Method: DHFR PCA, deep sequencing
Matrix: yeast
Setting: methotrexate growth selection, single substitutions
Together with: (+)-ABA 4.8 µM
Baseline: wild-type fitted maximum
Reading: higher = stronger binding
Starting sequence: PYL1, truncated, DHFR fusion (Arabidopsis thaliana); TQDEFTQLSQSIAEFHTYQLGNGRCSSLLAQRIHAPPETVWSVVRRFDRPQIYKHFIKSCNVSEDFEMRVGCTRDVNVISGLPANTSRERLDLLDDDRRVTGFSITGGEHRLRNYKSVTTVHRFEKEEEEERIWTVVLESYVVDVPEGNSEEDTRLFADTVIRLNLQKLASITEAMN; partner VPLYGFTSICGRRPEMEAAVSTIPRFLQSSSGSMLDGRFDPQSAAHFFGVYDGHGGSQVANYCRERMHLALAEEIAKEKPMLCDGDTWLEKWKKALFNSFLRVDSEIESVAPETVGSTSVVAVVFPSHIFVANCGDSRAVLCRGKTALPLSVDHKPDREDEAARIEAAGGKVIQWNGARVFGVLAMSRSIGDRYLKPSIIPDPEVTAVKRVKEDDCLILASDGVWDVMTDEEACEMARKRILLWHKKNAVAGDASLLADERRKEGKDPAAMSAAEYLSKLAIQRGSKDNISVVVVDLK
Change	relative binding score
E130M	62.2%
S171N	79.7%
Q51S	7.14%
L164N	40.3%
R98A	50.6%
S104V	-0.886%
G23M	44.7%
L112P	12.7%
E67Q	73.4%
L91G	6.3%
A84M	32.4%
E4K	43.4%
I172A	20%
P36C	48.2%
R45M	-4.67%
N77E	82.9%
V121W	-6.16%

Block 4
Target: Interferon regulatory factor 7, full length, phosphomimetic (IRF7, Homo sapiens, UniProt Q92985, residues 1-503, S101K/S471D/S472D/S475D/S476D/S477D/S483D/S484D/S487D)
Method: protein-binding microarray
Molecule type: double-stranded DNA, one strand shown
Matrix: in vitro
Tested at: 250 nM
Setting: 60-bp whole probe
Together with: salmon DNA 0.4 mg/ml
Baseline: random background probes
Reading: higher = stronger binding
Constant ends, left off below: GCCTAGCAC … GTCTTGATTCGCTTGACGCTGCTG
Residues (chain): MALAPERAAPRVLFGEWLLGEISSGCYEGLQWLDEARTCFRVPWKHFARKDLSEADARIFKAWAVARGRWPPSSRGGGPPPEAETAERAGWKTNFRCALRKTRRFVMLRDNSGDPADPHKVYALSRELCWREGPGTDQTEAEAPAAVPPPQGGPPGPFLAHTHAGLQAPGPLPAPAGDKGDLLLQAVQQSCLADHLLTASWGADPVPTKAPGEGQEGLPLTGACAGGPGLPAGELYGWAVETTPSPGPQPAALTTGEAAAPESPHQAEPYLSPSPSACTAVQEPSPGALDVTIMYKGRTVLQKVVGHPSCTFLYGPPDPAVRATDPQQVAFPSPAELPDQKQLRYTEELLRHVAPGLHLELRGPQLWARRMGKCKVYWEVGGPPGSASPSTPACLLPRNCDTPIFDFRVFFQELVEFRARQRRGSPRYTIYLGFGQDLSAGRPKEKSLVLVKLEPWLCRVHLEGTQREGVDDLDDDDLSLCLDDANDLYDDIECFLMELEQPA
Oligonucleotide	log fluorescence [z-score]
GACGGTTTCCTACTGCTCACGTGCTAG	1.4
TTAGATATCAGTCTCAATTAGTGCTAG	0.373
ATGCCTTTCTCTTGGAGCTTGTGCTAG	0.673
GACGATATCGGGTATAGAGACGTGCTA	-0.327
GACGGTTTCGGAATGGGGACGTGCTAG	10.1
GACGATTCCAGTTTCCAGACGTGCTAG	1.73
TTAGATCTCAGTTTCGATTTGTGCTAG	12.3
TTAGATATCGCGTTTCGATTAGTGCTA	2.48
GACAATATCAGTCTCGAGACGTGCTAG	0.602
TCAGCTTTACTGATGGCACTGTGCTAG	-0.544

Block 5
Target: TAR DNA-binding protein 43, full length, His tag (TARDBP, Homo sapiens, UniProt Q13148, residues 1-414)
Method: RNA Bind-n-Seq
Molecule type: RNA
Matrix: in vitro
Tested at: 20 nM
Setting: 6-mer, flanks averaged, single round
Together with: 150 mM KCl
Baseline: input library
Reading: higher = stronger binding
Oligonucleotide	6-mer enrichment (R)
UGCGCA	0.909
CCUCUG	0.634
GUGAAC	0.897
UCCAAC	0.589
GCGCUU	0.787
UAAACG	0.674
GCAGAU	0.862
GGAACA	1.08
UCAAAA	0.611
AAAAGU	0.639
GACACA	0.8
CUCAAG	0.676
UCACAU	0.569
GGUCUC	0.837
GCACUA	0.69
CUUAGC	0.601
CUCCAG	0.676
GGCGCC	1.46
UUCUAG	0.604
AUCAUA	0.577
GACGGU	1.36

Block 6
Target: CCNE2, cyclin fold, Cln2 fusion (human)
Method: yeast growth competition, sequencing
Matrix: yeast
Setting: weak parent motif
Baseline: not given
Reading: higher = stronger binding
Starting sequence: MICAL3 docking peptide (human); LQLRRQLSFSEDS; partner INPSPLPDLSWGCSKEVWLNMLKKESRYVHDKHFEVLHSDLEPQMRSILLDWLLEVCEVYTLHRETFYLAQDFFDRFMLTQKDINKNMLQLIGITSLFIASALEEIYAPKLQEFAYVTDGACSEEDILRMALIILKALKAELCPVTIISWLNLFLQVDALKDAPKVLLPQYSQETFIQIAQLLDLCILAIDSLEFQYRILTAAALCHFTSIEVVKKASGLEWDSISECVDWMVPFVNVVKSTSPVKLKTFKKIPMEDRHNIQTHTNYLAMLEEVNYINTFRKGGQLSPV
Change	normalised enrichment score
LQLRRQLSFSLDS [E11L]	0.613
LQLRRQLSFSENS [D12N]	0.535
LQLWRQLSFSEDS [R4W]	0.268
LQLRRQLCFSEDS [S8C]	0.206
LQLRRQLRFSEDS [S8R]	-0.00999
LQLRRWLSFSEDS [Q6W]	0.351
LQLRRQLSVSEDS [F9V]	-0.114
LQLRYQLSFSEDS [R5Y]	0.393
LLLRRQLSFSEDS [Q2L]	0.272
LQVRRQLSFSEDS [L3V]	3.34
LQQRRQLSFSEDS [L3Q]	-0.0233
LQLRRQLSFWEDS [S10W]	0.339
LQLRRQLSRSEDS [F9R]	0.525
LQLNRQLSFSEDS [R4N]	0.0568
LQLRRQLSFSEKS [D12K]	0.0815

Some of these lines once more (block 3):
Change	relative binding score
E67Q	73.4%
V121W	-6.16%
S171N	79.7%
A84M	32.4%
P36C	48.2%
I172A	20%
L164N	40.3%
E4K	43.4%
L91G	6.3%
